Experimental data from different studies.
Numbered parts are unrelated; each lists some results of a single study. Positions count from the first letter of the parent shown.
Chain of UniProt Q96RR4 (whole entry, looked up): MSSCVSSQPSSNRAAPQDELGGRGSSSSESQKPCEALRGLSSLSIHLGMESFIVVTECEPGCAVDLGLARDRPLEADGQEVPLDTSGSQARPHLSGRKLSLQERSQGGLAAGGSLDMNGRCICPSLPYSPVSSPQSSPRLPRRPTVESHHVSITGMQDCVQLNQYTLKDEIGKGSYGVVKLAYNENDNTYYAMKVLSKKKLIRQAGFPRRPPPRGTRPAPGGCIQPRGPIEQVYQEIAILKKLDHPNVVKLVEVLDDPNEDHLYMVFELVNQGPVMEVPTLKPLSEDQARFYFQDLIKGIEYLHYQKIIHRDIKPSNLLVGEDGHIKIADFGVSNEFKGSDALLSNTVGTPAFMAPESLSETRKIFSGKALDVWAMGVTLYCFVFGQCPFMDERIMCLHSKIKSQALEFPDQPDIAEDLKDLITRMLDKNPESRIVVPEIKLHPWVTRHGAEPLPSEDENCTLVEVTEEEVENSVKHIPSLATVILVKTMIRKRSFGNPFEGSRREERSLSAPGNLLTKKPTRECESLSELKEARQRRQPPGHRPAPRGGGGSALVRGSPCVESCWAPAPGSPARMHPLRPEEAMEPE
Chain of UniProt P07948 (whole entry, looked up): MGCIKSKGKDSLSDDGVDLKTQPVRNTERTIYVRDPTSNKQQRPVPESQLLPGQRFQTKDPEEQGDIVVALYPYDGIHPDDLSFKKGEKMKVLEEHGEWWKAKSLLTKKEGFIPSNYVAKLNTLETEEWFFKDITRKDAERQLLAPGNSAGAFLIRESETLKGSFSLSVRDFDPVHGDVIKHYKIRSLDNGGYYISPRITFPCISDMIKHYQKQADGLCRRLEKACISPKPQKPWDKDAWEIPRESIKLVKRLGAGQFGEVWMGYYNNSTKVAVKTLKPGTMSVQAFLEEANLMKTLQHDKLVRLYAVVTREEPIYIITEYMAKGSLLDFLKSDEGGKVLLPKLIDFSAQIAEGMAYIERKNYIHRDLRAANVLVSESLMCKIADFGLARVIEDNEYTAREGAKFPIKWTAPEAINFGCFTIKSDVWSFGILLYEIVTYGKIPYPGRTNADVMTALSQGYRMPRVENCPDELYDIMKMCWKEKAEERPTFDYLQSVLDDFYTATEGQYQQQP
Chain of UniProt Q96J92 (whole entry, looked up): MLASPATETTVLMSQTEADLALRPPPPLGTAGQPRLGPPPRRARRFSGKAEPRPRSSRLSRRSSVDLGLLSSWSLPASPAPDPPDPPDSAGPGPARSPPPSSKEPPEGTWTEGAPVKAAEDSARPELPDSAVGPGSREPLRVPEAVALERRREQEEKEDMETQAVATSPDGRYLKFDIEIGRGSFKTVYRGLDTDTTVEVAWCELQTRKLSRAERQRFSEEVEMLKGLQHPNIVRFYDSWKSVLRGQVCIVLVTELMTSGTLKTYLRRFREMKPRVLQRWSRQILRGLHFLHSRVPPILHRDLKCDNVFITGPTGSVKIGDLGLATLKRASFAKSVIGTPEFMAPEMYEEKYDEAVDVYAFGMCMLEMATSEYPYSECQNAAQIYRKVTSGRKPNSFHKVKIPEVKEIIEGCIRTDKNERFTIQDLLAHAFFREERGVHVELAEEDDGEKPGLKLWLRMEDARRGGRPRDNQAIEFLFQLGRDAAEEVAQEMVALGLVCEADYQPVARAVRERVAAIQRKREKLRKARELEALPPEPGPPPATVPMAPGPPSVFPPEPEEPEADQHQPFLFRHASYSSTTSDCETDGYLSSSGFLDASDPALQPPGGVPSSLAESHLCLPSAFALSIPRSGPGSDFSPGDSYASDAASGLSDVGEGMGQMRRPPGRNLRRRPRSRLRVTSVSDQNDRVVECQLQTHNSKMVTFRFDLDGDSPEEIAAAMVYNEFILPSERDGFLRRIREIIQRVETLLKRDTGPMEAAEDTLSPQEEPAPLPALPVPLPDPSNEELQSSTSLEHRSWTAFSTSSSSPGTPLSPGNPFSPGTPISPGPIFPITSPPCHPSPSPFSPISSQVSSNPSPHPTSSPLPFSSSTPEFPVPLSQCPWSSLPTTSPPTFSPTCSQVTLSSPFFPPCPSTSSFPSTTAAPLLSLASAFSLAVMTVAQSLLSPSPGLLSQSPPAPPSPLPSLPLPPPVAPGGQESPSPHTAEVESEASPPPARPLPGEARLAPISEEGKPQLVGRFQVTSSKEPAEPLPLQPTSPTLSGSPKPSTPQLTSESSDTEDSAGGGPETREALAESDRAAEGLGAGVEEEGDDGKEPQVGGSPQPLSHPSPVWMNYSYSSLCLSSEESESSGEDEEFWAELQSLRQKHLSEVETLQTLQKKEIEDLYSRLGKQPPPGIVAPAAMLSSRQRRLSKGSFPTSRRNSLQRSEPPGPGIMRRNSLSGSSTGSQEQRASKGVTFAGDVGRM
Chain of UniProt P52564 (whole entry, looked up): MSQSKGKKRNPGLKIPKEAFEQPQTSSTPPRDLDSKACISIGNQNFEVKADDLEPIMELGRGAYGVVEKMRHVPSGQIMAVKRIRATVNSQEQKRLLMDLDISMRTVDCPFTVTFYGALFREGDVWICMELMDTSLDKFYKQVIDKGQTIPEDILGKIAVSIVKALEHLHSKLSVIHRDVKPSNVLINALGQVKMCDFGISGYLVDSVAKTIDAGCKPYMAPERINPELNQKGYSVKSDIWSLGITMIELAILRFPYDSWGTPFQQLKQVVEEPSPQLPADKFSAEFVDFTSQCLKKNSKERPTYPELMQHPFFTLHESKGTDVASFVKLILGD
Chain of UniProt P10721 (whole entry, unmodified, looked up): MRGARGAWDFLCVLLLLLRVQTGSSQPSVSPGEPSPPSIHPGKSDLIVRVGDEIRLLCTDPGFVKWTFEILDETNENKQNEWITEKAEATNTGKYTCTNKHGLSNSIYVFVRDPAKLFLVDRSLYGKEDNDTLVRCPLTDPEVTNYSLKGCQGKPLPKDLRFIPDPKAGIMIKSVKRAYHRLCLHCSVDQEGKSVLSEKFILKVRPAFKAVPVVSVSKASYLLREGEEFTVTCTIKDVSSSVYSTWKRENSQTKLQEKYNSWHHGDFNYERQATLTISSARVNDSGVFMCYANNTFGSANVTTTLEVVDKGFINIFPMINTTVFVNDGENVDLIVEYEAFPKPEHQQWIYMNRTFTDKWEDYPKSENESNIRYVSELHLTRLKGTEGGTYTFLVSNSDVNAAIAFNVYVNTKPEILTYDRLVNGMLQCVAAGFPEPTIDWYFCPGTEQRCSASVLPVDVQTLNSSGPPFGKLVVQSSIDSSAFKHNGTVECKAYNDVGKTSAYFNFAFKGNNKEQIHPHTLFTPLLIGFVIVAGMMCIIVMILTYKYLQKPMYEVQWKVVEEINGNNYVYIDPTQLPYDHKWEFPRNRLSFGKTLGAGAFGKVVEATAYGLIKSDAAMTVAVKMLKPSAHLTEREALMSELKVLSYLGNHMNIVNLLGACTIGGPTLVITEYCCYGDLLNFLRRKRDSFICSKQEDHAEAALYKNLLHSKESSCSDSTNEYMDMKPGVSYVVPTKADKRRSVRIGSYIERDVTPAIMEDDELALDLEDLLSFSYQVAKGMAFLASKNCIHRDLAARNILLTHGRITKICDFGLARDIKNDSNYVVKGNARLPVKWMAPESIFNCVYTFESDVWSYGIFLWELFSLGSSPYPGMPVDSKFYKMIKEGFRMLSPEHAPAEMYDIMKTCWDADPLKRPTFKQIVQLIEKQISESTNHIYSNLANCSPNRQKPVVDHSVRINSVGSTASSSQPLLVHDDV
Chain of UniProt P42680 (whole entry, looked up): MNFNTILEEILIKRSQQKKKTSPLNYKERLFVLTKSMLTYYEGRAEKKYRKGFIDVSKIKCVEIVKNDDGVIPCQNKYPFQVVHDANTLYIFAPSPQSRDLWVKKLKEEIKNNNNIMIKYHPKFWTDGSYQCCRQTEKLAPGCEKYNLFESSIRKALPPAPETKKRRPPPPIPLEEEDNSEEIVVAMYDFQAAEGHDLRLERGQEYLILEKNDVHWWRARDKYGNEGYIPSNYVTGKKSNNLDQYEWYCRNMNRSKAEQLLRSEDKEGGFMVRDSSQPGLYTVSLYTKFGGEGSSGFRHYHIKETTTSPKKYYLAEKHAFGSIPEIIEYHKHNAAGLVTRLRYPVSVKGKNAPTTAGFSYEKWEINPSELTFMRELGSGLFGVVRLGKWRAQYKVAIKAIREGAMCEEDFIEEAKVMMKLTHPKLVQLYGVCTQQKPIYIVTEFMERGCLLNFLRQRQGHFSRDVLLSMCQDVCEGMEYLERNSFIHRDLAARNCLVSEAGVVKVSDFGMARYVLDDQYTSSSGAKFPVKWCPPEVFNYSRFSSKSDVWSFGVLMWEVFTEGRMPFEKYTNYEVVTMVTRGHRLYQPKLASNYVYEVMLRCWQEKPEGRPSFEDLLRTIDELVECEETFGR
Chain of UniProt Q96GD4 (whole entry, looked up): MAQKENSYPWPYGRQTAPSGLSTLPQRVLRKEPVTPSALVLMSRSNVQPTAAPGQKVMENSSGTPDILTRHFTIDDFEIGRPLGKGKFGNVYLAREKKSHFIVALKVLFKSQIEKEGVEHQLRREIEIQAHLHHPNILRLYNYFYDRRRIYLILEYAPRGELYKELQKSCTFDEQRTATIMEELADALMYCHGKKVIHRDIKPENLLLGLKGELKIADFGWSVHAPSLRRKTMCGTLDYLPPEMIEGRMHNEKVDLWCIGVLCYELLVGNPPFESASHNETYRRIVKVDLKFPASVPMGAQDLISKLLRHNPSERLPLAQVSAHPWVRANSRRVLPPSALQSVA
Chain of UniProt P11802 (whole entry, looked up): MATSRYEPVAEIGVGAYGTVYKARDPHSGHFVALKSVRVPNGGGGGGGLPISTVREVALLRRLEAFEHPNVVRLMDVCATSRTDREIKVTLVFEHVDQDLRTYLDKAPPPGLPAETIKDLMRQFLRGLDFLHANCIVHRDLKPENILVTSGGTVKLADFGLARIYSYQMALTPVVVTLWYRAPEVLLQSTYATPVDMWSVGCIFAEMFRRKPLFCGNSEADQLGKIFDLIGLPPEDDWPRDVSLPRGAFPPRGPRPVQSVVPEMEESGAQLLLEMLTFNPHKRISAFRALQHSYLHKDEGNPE

Series 1
Variant: T73V
Target: ABI1, truncated, D143A, DHFR fusion (Arabidopsis thaliana)
Technique: DHFR PCA, deep sequencing
Matrix: yeast
Notes: methotrexate growth selection, single substitutions
Reference: wild-type fitted maximum
Direction: higher = stronger binding
Starting sequence: PYL1, truncated, DHFR fusion (Arabidopsis thaliana); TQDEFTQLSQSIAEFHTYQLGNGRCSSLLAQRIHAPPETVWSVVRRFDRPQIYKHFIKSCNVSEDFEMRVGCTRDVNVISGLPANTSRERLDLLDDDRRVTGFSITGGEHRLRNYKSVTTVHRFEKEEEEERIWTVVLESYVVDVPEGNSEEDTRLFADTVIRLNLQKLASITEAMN; partner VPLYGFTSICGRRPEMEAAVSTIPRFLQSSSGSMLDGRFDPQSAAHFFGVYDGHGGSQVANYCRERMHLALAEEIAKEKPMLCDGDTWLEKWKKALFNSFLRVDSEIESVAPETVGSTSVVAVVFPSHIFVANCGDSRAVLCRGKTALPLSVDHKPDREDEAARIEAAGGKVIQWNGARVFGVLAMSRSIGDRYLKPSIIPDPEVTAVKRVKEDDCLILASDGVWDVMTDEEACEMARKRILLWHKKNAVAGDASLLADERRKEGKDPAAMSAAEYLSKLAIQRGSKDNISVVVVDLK
together with | relative binding score
(+)-ABA 710 µM | 104%
(+)-ABA 0.0091 µM | 39.7%
(+)-ABA 0.39 µM | 57.1%
(+)-ABA 0.032 µM | 37.3%
(+)-ABA 1.4 µM | 67.9%
(+)-ABA 17 µM | 90%

Series 2
SMILES: FC(F)(F)c1ccc2c(c1)nc(-c1cccnc1)n2C1CC1
Effect on: cell-free assay
Technique: competition with immobilised ligand
Tested at: 1 µM
target | remaining binding [%]
STK38L (Homo sapiens, UniProt Q9Y2H1) | 100
GAK (Homo sapiens, UniProt O14976) | 100
ERBB4 (Homo sapiens, UniProt Q15303) | 100
CAMKK2 (Homo sapiens, UniProt Q96RR4) | 100
KIT (Homo sapiens, UniProt P10721, D816H) | 100
WNK4 (Homo sapiens, UniProt Q96J92) | 100
PKN2 (Homo sapiens, UniProt Q16513) | 100
CILK1 (Homo sapiens, UniProt Q9UPZ9) | 100
EPHA1 (Homo sapiens, UniProt P21709) | 100
Cyclin-dependent kinase 4, with cyclin D3 (CDK4, Homo sapiens, UniProt P11802) | 100
MAP2K6 (Homo sapiens, UniProt P52564) | 98
LYN (Homo sapiens, UniProt P07948) | 82
FER (Homo sapiens, UniProt P16591) | 100
Aurora kinase B (AURKB, Homo sapiens, UniProt Q96GD4) | 100
FLT3 (Homo sapiens, UniProt P36888, D835V) | 92
EGFR (Homo sapiens, UniProt P00533, L858R/T790M) | 100
TEC (Homo sapiens, UniProt P42680) | 100

Series 3
Target: Prothrombin, mature alpha-thrombin (F2, Homo sapiens, UniProt P00734)
Technique: aptamer microarray, sandwich
Molecule type: DNA with 2'F-ANA
Matrix: in vitro
Tested at: 200 nM
Notes: whole 15-mer aptamer, many near background
Together with: Cy3 exosite-II aptamer, 400 nM
Direction: higher = stronger binding
Oligonucleotide: GGTTGGTGTGGTTGG
Modification | mean fluorescence intensity [a.u.]
2'F-ANA at 1 3 7 11 12 14 | 113
2'F-ANA at 1 2 4 5 6 8 9 10 11 14 15 | 83.2
2'F-ANA at 1 2 3 8 10 14 15 | 54.1
2'F-ANA at 1 3 7 10 11 13 14 15 | 57.6
2'F-ANA at 1 2 3 4 6 9 11 12 13 | 157
2'F-ANA at 1 2 3 4 6 7 8 9 10 11 12 13 14 15 | 54.2
2'F-ANA at 1 3 4 8 10 11 | 64.3
2'F-ANA at 7 8 9 10 11 12 14 15 | 110

Single results of other studies
Structure (SMILES) | tested on | test | system | conditions | endpoint | result
CC(C)C[C@@H]1NC(=O)[C@H](C(C)C)NC(=O)[C@H](Cc2cscn2)NC(=O)[C@@H](CC(C)C)NC(=O)[C@H](C(C)C)NC(=O)[C@H](CC(C)C)NC(=O)[C@@H](CC(C)C)NC1=O | – | PRP chromatography estimate | 1,9-decadiene/PBS | pH 7.4 | logD | 0.709
Fc1ccccc1-c1cc(NC2CCNCC2)n2nccc2n1 | – | – | mouse, microsomes or S9 | 2 µM, 0.5 h | remaining compound | > 100%
CC(C)C[C@@H]1NC(=O)[C@H](Cc2cscn2)NC(=O)[C@@H](CC(C)C)NC(=O)[C@H](CC(C)C)NC(=O)[C@@H](Cc2cscn2)NC(=O)[C@H](CC(C)C)NC(=O)[C@@H](CC(C)C)NC1=O | – | PRP chromatography estimate | 1,9-decadiene/PBS | pH 7.4 | logD | 0.418
Nc1nc2ncc(-c3ccc(Cl)cc3)c(N)n2n1 | – | – | mouse, microsomes or S9 | 2 µM, 0.5 h | remaining compound | 86.5%
Nc1ncnc2c1ncn2[C@@H]1O[C@H](CO)C[C@H]1O | Sarcocystis neurona | parasite growth | – | 10 µM | inhibition | -20.5%

Repeated from above (series 2):
target | remaining binding [%]
CILK1 (Homo sapiens, UniProt Q9UPZ9) | 100
EPHA1 (Homo sapiens, UniProt P21709) | 100
Cyclin-dependent kinase 4, with cyclin D3 (CDK4, Homo sapiens, UniProt P11802) | 100
MAP2K6 (Homo sapiens, UniProt P52564) | 98
